# Assay results of several laboratories.
# Lines come from different studies, so protocols differ. Values joined by “and” are separate records of one study, mostly repeats; a detail may differ.
# Organism: Staphylococcus aureus
Structure (SMILES),assay,system,setting,scale,endpoint,result
OB(O)c1csc2ccccc12,OD600,USA300 fphE::Tn transposon mutant,50 µM,relative to: wild type,growth,63.6% and 65.3% and 54.5% and 61.5% and 57.4% and 48.4%
CC[C@H](C)[C@H](NC(=O)[C@H](C)NC(=O)[C@H](CCCCN)NC(=O)[C@H](CC(C)C)NC(=O)[C@H](C)NC(=O)[C@@H](NC(=O)[C@H](Cc1c[nH]cn1)NC(=O)[C@H](CC(C)C)NC(=O)[C@@H](NC(=O)[C@@H](NC(=O)[C@H](CCCCN)NC(=O)[C@H](C)NC(=O)[C@H](C)NC(=O)[C@H](CO)NC(=O)[C@H](CCCCN)NC(=O)[C@H](Cc1ccccc1)NC(=O)[C@@H](NC(=O)[C@H](CCCCN)NC(=O)[C@H](CC(C)C)NC(=O)[C@H](Cc1ccccc1)NC(=O)[C@H](CO)NC(=O)[C@H](CCCCN)NC(=O)[C@H](Cc1c[nH]c2ccccc12)NC(=O)[C@H](CCCCN)NC(C)=O)[C@@H](C)O)[C@@H](C)O)C(C)C)[C@@H](C)O)C(=O)N[C@@H](CO)C(=O)N[C@@H](CO)C(N)=O,,MRSA,130 strains,,MIC50,4 µg/mL
CCCCCCCCCC(=O)N[C@@H](Cc1c[nH]c2ccccc12)C(=O)N[C@H](CC(N)=O)C(=O)N[C@@H](CC(=O)O)C(=O)N[C@@H]1C(=O)NCC(=O)N[C@@H](CCCN)C(=O)N[C@@H](CC(=O)O)C(=O)N[C@H](C)C(=O)N[C@@H](CC(=O)O)C(=O)NCC(=O)N[C@H](CO)C(=O)N[C@@H]([C@H](C)CC(=O)O)C(=O)N[C@@H](CC(=O)c2ccccc2N)C(=O)O[C@@H]1C,broth microdilution,"BR-VRSA strain 880, Mueller-Hinton broth, Mg2+ 10 mg/L","16 h, together with: Ca2+ 0 mM",,MIC,> 128 µg/mL
CN[C@H](CC(C)C)C(=O)N[C@H]1C(=O)N[C@@H](CC(N)=O)C(=O)N[C@H]2C(=O)N[C@H]3C(=O)N[C@H](C(=O)N[C@H](C(=O)O)c4cc(O)cc(O)c4-c4cc3ccc4O)[C@H](O)c3ccc(c(Cl)c3)Oc3cc2cc(c3O[C@@H]2O[C@H](CO)[C@@H](O)[C@H](O)[C@H]2O[C@H]2C[C@](C)(N)[C@H](O)[C@H](C)O2)Oc2ccc(cc2Cl)[C@H]1O,,MRSA strain 4,,,MIC,2 µg/mL
C=CC[C@@H]1c2ccc(OC)c(OC)c2CN2CCc3cc4c(cc3[C@H]12)OCO4,,"P2rx7 A312V/A312V mice, skin wound infection","dose not given, day 7",relative to: day 0,relative wound size,0.36 and 0.81 and 0.74 and 0.97 and 0.39 and 0.52
CO/N=C(\C(=O)N[C@@H]1C(=O)N2C(C(=O)O)=C(CSC(=O)c3ccco3)CS[C@H]12)c1csc(N)n1,,"CAAS-2019-CAAS-2019-10 clinical blaZ-resistant isolate, 25% plasma",,,MBC,32 µg/mL
CC[C@H](C)[C@H](NC(=O)[C@H](CCCCN)NC(=O)[C@H](CCCCN)NC(=O)[C@H](Cc1ccccc1)NC(=O)[C@@H](NC(=O)[C@@H](NC(=O)[C@H](CCCNC(=N)N)NC(=O)[C@H](Cc1ccccc1)NC(=O)[C@@H](NC(=O)[C@H](CCCCN)NC(=O)[C@H](CCCCN)NC(=O)[C@@H](N)CCSC)[C@@H](C)CC)C(C)C)[C@@H](C)CC)C(=O)N[C@@H](CC(C)C)C(=O)N[C@@H](CCCCN)C(=O)N[C@@H](CCCNC(=N)N)C(=O)N[C@@H](CC(C)C)C(=O)N[C@H](C(=O)N[C@H](C(=O)O)C(C)C)[C@@H](C)CC,broth microdilution,ATCC 25923,,,MBC,8 µg/mL
Cc1c2c(nn1C)CSCc1cc(n(C)n1)CSc1cc(c3ccccc3c1)OCCCc1c(C(=O)O)n(C)c3c-2c(Cl)ccc13,"label-free quantitative proteomics, refers to: SAOUHSC_02629 protein",SA113,concentration not given,relative to: untreated control,log2 fold change,4.08
CC(C)C[C@H](NC(=O)CNC(=O)CNC(=O)CNC(=O)[C@H](Cc1ccc(O)cc1)NC(=O)[C@H](CC(C)C)NC(=O)[C@@H](NC(=O)CNC(=O)[C@H](Cc1ccc(O)cc1)NC(=O)[C@H](CCCCN)NC(=O)[C@H](CC(N)=O)NC(=O)[C@@H](NC(=O)[C@H](CCCCN)NC(=O)[C@H](Cc1c[nH]c2ccccc12)NC(=O)CN)[C@@H](C)O)[C@@H](C)O)C(=O)N[C@@H](CCCCN)C(=O)N[C@@H](CCCCN)C(=O)N[C@@H](CC(C)C)C(=O)N[C@@H](CC(C)C)C(=O)N[C@@H](CC(C)C)C(=O)N[C@@H](CC(C)C)C(=O)N[C@@H](CC(C)C)C(=O)N[C@@H](CCCCN)C(=O)N[C@@H](CCCCN)C(=O)N[C@@H](CC(C)C)C(=O)NCC(=O)O,,USA300,together with: 2 mM CaCl2,,MIC,32 µg/mL
CN[C@H](CC(C)C)C(=O)N[C@H]1C(=O)N[C@@H](CC(N)=O)C(=O)N[C@H]2C(=O)N[C@H]3C(=O)N[C@H](C(=O)N[C@H](C(=O)O)c4cc(O)cc(O)c4-c4cc3ccc4O)[C@H](O)c3ccc(c(Cl)c3)Oc3cc2cc(c3O[C@@H]2O[C@H](CO)[C@@H](O)[C@H](O)[C@H]2O[C@H]2C[C@](C)(N)[C@H](O)[C@H](C)O2)Oc2ccc(cc2Cl)[C@H]1O,,"CAAS-2019-CAAS-2019-13 clinical drug-resistant isolate, 25% plasma",,,MBC,8 µg/mL

# Excerpt of the above:
Structure (SMILES),assay,system,setting,scale,endpoint,result
CO/N=C(\C(=O)N[C@@H]1C(=O)N2C(C(=O)O)=C(CSC(=O)c3ccco3)CS[C@H]12)c1csc(N)n1,,"CAAS-2019-CAAS-2019-10 clinical blaZ-resistant isolate, 25% plasma",,,MBC,32 µg/mL
